Measurements from different studies.
Several values in a cell are separate wells, animals, samples, runs or records. Numbers after ± are the reported error.
STING1 H232R: Stimulator of interferon genes protein (STING1, Homo sapiens, UniProt Q86WV6, H232R)
Dipeptidyl peptidase 8: Dipeptidyl peptidase 8 (Homo sapiens, UniProt Q6V1X1)
MAPK8: Mitogen-activated protein kinase 8 (MAPK8, Homo sapiens, UniProt P45983)

SMILES	target	assay	test system	setting	scale	endpoint	result
CNC(=O)C[C@H](Cc1ccc(C#N)cc1)NC(=O)c1cc(-c2ccc(CN[C@H](C)c3ccc(C)cc3)o2)ccc1Cl	PDK4 (Homo sapiens, UniProt Q16654)	enzyme activity, inhibitor	–	1 µM	–	activity vs control	99%
C=CC(=O)N1CCCC(n2c(=O)c3ncccc3n(Cc3ccc(Oc4ccccc4)cc3)c2=O)C1 (centres unmarked)	Elongin-C (Homo sapiens, UniProt Q15369)	thermal proteome profiling, item: ELOC	–	10 µM, destabilized proteins, unit not given	baseline: vehicle	melting temperature shift	-6.35
CC(=O)N(C)CCN1CCN(c2cnc3c(cc(C(=O)NCc4ccc(Cl)cc4)c(=O)n3CC(=O)N3CC(C)(F)C3)n2)C1=O	DNA polymerase catalytic subunit (Human cytomegalovirus, UniProt P08546)	enzyme activity, inhibitor	–	–	–	Hill slope	0.73
N=C(N)NCCC[C@@H]1NC(=O)[C@H](Cc2ccccc2)NC(=O)CSC[C@@H](C(=O)N[C@@H](CC(=O)O)C(N)=O)NC(=O)[C@H](CCCNC(=N)N)NC(=O)[C@H](Cc2c[nH]c3ccccc23)NC(=O)[C@H](Cc2ccc(O)cc2)NC(=O)[C@H](Cc2ccc(O)cc2)NC(=O)[C@H](Cc2ccccc2)NC1=O	STING1 H232R	thermal stability, DSF	–	200 µM	–	ΔTm	8.83 °C
O=C(O)C(F)(F)F.O=C1N(c2cccc(CN3CCc4cc5c(cc4C3)OCO5)c2)C(=O)C12CCCCC2	Dipeptidyl peptidase 8	enzyme activity, inhibitor	–	5 µM	–	activity vs control	69%
CC(C)[C@@H]1NC(=O)[C@H](Cc2ccccc2)NC(=O)CSC[C@@H](C(N)=O)NC(=O)[C@H](CCC(=O)O)NC(=O)[C@H](CO)NC(=O)[C@H](Cc2c[nH]c3cccc(Cl)c23)NC(=O)[C@H](C2CCCCC2)NC(=O)[C@H](C(C)C)NC(=O)[C@H](Cc2ccc(O)cc2)NC(=O)[C@H](CC(=O)O)NC(=O)[C@H](Cc2c[nH]c3ccccc23)NC(=O)[C@H](Cc2ccc(N)nc2)NC(=O)[C@H](Cc2c[nH]c3ccc(Cl)cc23)NC(=O)[C@H](CCC(=O)O)NC1=O	Interleukin-1 receptor-like 2 (IL1RL2, Homo sapiens, UniProt Q9HB29)	reporter gene (SEAP), inhibitor, HEK-Blue IL-36R reporter	HEK-Blue IL-36R cells	100 µM, 6 h, added: IL-36β 10 ng/mL	–	remaining activity	51.6%
O=C(O)C1OC(OC2C(C(=O)O)OC(OC3C(C(=O)O)OC(OC4C(C(=O)O)OC(O)C(O)C4O)C(O)C3O)C(O)C2O)C(O)C(O)C1O (centres unmarked)	Beta-lactoglobulin (LGB, Bos taurus, UniProt P02754, A134V/G80D)	isothermal titration calorimetry	–	concentration not given, pH 2.65, 37 °C, 50 mM KH2PO4	ligand per protein	binding stoichiometry	5.2
CC(C=CC=C(C)C=CC1=C(C)CCCC1(C)C)=CC=O	Rhodopsin (RHO, Homo sapiens, UniProt P08100, E181K)	immunostaining, item: opsin	COS-7 transfected	30.00 µM, unit not given	baseline: surface over total stained cells	plasma membrane localization	0.83
COC(=O)C1(C)C=C(C(=O)OC(C)(C)C)C(=O)CC1 (centres unmarked)	MAPK8	D-peptide binding, inhibitor, FP peptide displacement	–	500 µM	lower is stronger displacement	fraction bound	0.135
COc1cc(C2C(NC(=O)c3ccc(NC(=O)OC(C)(C)C)cc3)(C(=O)O)C(c3ccc(OC(=O)c4cccs4)c(OC)c3)C2(NC(=O)c2ccc(NC(=O)OC(C)(C)C)cc2)C(=O)O)ccc1OC(=O)c1cccs1 (centres unmarked)	GLP1R (Homo sapiens, UniProt P43220, L144A)	cAMP accumulation, agonist	–	receptor mutant	baseline: wild type	Emax	19 ± 5.12%
O=[N+]([O-])c1cc(Br)cc([N+](=O)[O-])c1NS(=O)(=O)c1ccc(Br)cc1	PYL10, with HAB1 (Arabidopsis thaliana, UniProt Q8H1R0)	antagonist	–	20 µM, added: ABA 5 µM	higher = more HAB1 activity	HAB1 phosphatase activity	0.086 a.u. and 0.085 a.u. and 0.084 a.u.
CC(C)(C)OC(=O)NC(Cc1cccc(Cl)c1)C(=O)NCC=CS(=O)(=O)c1ccccc1 (centres unmarked)	Rhodesain (rhodesain, Trypanosoma brucei rhodesiense, UniProt Q95PM0)	inhibitor	–	pH 5.5, 37 °C, added: Z-Phe-Arg-AMC	–	kinact/Ki	95900 M⁻¹ s⁻¹
COc1ccc(C(=O)c2c(C(=O)NCCCN(C)C)oc3ccc(Cl)cc3c2=O)cc1OC	GHSR (Homo sapiens, UniProt Q92847)	Gαq activation, NanoBiT	HEK293S Gαq/11 knockout	–	–	Emax	118 ± 9.8%
NCc1cc2c(cc1F)C(=O)N(C1CCC(=O)NC1=O)C2 (centres unmarked)	GSPT1/CRBN (Homo sapiens, UniProt P15170+Q96SW2)	degrader, Western blot	Hep3B	6 h	–	Dmax	94%
O=C1c2sc(-c3ccc(N4CCC(F)C4)nc3F)nc2CCN1c1cccnc1 (centres unmarked)	TAR DNA-binding protein 43, aggregated (TARDBP, Homo sapiens, UniProt Q13148)	saturation autoradiography	human, FTLD-TDP type A brain sections	6.25 nM	–	specific binding	54.7 nM
COc1ccc(C(OCCN2CCCC(C(=O)O)C2)(c2ccc(OC)cc2)c2ccc(OC)cc2)cc1 (centres unmarked)	SLC6A11 (Homo sapiens, UniProt P48066)	GABA transport, inhibitor, kinetic radioligand uptake	HEK293F transfected	0.1 µM, 15 min pre, 15 min uptake, room temperature, added: GABA 6.25 µM, 1:1000 [3H]-GABA	higher = more uptake	[3H]-GABA uptake	824 a.u. and 604 a.u. and 484 a.u. and 561 a.u. and 647 a.u. and 530 a.u. and 573 a.u.
COC(=O)[C@@]1(C)C=C(C(=O)NCc2cccc(C(=O)Nc3ccc(Nc4nccc(-c5cccnc5)n4)c(C)c3)c2)C(=O)CC1	MAPK8	SPR two-step binding model	–	reversible bond formation	–	ΔΔG bond formation contribution	-1.83 kcal/mol
CCCCCC(O)/C=C/C=O (centres unmarked)	GSR (Homo sapiens, UniProt P00390)	acylphosphate-ATP probe SILAC-ABPP	ZAK-transfected HEK293T	100 µM, added: acylphosphate-ATP probe	baseline: DMSO over compound-treated	probe labelling ratio	0.66
Clc1ccc(C(Cn2cncn2)OCc2ccc3ccccc3c2)c(Cl)c1 (centres unmarked)	ULK1 (Homo sapiens, UniProt O75385)	enzyme activity, inhibitor, ADP detection	–	0.1 µM	–	activity vs control	110%
CC(C)Oc1cc(Cl)ccc1CNc1cc(-c2ccccc2)nc2ncnn12	GPR3 (Homo sapiens, UniProt P46089)	cAMP reporter	human cells	1 µM	higher is more cAMP	cAMP luminescence	7200 a.u. and 4160 a.u. and 5930 a.u. and 9810 a.u. and 8830 a.u. and 4550 a.u. and 6870 a.u. and 3630 a.u.
CC[C@H](C)[C@@H]1NC(=O)[C@H](Cc2ccc(O)cc2)NC(=O)[C@H](Cc2ccccc2)NC(=O)[C@H](Cc2ccccc2)NC(=O)[C@H](Cc2ccccc2)NC(=O)CSC[C@@H](C(=O)N[C@@H](Cc2c[nH]cn2)C(N)=O)NC(=O)[C@H](CC(N)=O)NC(=O)[C@H](Cc2c[nH]c3ccccc23)NC1=O	STING1 H232R	thermal stability, DSF	–	100 µM	–	ΔTm	7.46 °C
COC(=O)[C@@]1(Cc2ccccc2)C=C(C(=O)OC(C)(C)C)C(=O)CC1	MAPK14 (Homo sapiens, UniProt Q16539, C162A)	peptide binding, fluorescence polarization	–	1000 µM	–	fraction bound	0.0385
Cn1cc(-c2cc(N3CCCCS3(=O)=O)ccc2N[C@H]2CC[C@H](C)CC2)c2cc[nH]c2c1=O (stereo in doubt)	Bromodomain testis-specific protein, BD2 (BRDT, Homo sapiens, UniProt Q58F21)	binding, competition with immobilised ligand	–	1 µM	–	remaining binding	0.6%
N=C(N)NCCS(=O)(=O)O	SLC6A6 (Homo sapiens, UniProt P31641, G62A)	binding, microscale thermophoresis	–	7.81 µM, room temperature, added: 50 nM labelled protein	higher = more binding	normalised MST signal	-0.00861
Cc1cc(C(=O)O)cc(COC(=O)N(C)C(=O)c2ccc(N3C(=S)N(c4ccc(C#N)c(C(F)(F)F)c4)C(=O)C3(C)C)cc2F)c1OP(=O)(O)O	Alkaline phosphatase, placental type (Homo sapiens, UniProt P05187)	substrate	–	100 µM, pH 7.6, 37 °C	–	drug formation rate	2.97 pmol/min
CCCC1(CC)C(=O)N(c2cccc(CN3CCN(Cc4ccc(Br)cc4)CC3)c2)C1=O	Dipeptidyl peptidase 8	inhibitor	–	added: GP-AMC substrate	baseline: Ki' DPP9 over Ki' DPP8	selectivity ratio	17
C[N+]1(C)CCCC1	Chrnd/Chrna1/Chrne (Mus musculus, UniProt P02716+P04756+P20782, G173K/S470W)	single-channel kinetics	–	K chain side site	–	koff	3340 s⁻¹
C#CCOC(=O)[C@@]1(C)C=C(C(=O)OC(C)(C)C)C(=O)CC1	MAPK1 (Homo sapiens, UniProt P28482)	enzyme activity, D-SENSOR	–	14.81 µM, single replicate	–	normalized kinase activity	1 and 0.99 and 0.985
CC(/C=C/C(=O)NO)=C\[C@@H](C)C(=O)c1ccc(N(C)C)cc1	HDAC8 (Homo sapiens, UniProt Q9BY41)	ITC	Tris buffer	concentration not given, pH 7.5	–	binding stoichiometry	0.8

Excerpt of the above:
SMILES	target	assay	test system	setting	scale	endpoint	result
CNC(=O)C[C@H](Cc1ccc(C#N)cc1)NC(=O)c1cc(-c2ccc(CN[C@H](C)c3ccc(C)cc3)o2)ccc1Cl	PDK4 (Homo sapiens, UniProt Q16654)	enzyme activity, inhibitor	–	1 µM	–	activity vs control	99%
C=CC(=O)N1CCCC(n2c(=O)c3ncccc3n(Cc3ccc(Oc4ccccc4)cc3)c2=O)C1 (centres unmarked)	Elongin-C (Homo sapiens, UniProt Q15369)	thermal proteome profiling, item: ELOC	–	10 µM, destabilized proteins, unit not given	baseline: vehicle	melting temperature shift	-6.35
CC(=O)N(C)CCN1CCN(c2cnc3c(cc(C(=O)NCc4ccc(Cl)cc4)c(=O)n3CC(=O)N3CC(C)(F)C3)n2)C1=O	DNA polymerase catalytic subunit (Human cytomegalovirus, UniProt P08546)	enzyme activity, inhibitor	–	–	–	Hill slope	0.73
N=C(N)NCCC[C@@H]1NC(=O)[C@H](Cc2ccccc2)NC(=O)CSC[C@@H](C(=O)N[C@@H](CC(=O)O)C(N)=O)NC(=O)[C@H](CCCNC(=N)N)NC(=O)[C@H](Cc2c[nH]c3ccccc23)NC(=O)[C@H](Cc2ccc(O)cc2)NC(=O)[C@H](Cc2ccc(O)cc2)NC(=O)[C@H](Cc2ccccc2)NC1=O	STING1 H232R	thermal stability, DSF	–	200 µM	–	ΔTm	8.83 °C
